Measurements collected from several papers.
Parts stem from different laboratories: compare values within a part only.

Block 1
Target: Histone acetyltransferase KAT6A, winged helix 1, GST fusion (KAT6A, Homo sapiens, UniProt Q92794, residues 1-85)
Method: protein binding microarray
Form: double-stranded DNA, one strand shown
Sample: in vitro
Concentration: not given
Notes: 8-mer, flanks averaged, mean of 2 arrays, mostly near background
Baseline: not given
Direction: higher = stronger binding
Target sequence (chain): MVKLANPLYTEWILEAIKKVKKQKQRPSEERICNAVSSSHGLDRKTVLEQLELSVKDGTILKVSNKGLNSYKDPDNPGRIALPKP
| Strand | E-score |
| --- | --- |
| GTAACATA | 0.0483 |
| TGAGGCCA | -0.189 |
| CGAGAGCG | 0.229 |
| GCGACTCC | 0.219 |

Block 2
Target: Sal-like protein 4, full length isoform A (SALL4, Homo sapiens, UniProt Q9UJQ4, residues 1-1053)
UniProt Q9UJQ4, sequence (whole entry, looked up): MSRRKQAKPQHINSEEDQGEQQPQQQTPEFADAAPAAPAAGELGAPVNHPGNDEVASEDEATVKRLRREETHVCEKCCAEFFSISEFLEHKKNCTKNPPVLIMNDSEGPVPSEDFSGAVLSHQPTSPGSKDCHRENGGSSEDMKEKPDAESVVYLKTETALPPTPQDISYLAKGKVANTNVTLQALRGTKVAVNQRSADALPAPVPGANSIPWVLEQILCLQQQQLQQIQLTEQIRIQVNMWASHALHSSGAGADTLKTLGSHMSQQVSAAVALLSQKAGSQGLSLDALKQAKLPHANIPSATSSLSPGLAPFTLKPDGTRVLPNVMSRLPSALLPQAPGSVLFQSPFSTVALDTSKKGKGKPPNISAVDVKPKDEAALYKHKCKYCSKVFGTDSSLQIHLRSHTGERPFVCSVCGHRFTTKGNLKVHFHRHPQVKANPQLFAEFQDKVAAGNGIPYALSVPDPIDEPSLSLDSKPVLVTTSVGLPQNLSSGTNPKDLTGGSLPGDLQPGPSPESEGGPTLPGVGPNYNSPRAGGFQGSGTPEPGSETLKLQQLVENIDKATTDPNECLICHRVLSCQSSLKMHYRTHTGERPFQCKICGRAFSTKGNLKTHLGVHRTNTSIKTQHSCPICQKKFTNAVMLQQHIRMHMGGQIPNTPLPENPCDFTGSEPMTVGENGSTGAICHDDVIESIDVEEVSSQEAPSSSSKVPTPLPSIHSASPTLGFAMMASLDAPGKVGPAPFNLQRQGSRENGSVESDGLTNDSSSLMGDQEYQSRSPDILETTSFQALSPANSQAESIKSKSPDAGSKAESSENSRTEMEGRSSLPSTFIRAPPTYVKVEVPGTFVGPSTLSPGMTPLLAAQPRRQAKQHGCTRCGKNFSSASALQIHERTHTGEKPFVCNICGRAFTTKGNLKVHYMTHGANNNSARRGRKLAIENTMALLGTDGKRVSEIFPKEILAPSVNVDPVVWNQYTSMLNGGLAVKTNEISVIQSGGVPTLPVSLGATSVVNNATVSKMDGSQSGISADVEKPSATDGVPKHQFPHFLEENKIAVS
Method: universal PBM
Form: double-stranded DNA, one strand shown
Sample: in vitro
Concentration: 600 nM
Notes: 8-mer, flanks averaged, mean of replicates
Direction: higher = stronger binding
| Strand | E-score |
| --- | --- |
| CGCTCGCC | -0.309 |
| CCCTCTAC | -0.259 |
| CTATGCCC | -0.102 |

Block 3
Target: RNA binding protein fox-1 homolog 2, RRM domain, GST-SBP tag (RBFOX2, Homo sapiens, UniProt O43251-10, residues 100-194)
Method: RNA Bind-n-Seq
Form: RNA
Sample: in vitro
Concentration: 365 nM
Notes: natural RNA segment, single round, ends assumed
Baseline: no-protein control
Direction: higher = stronger binding
Residues (chain): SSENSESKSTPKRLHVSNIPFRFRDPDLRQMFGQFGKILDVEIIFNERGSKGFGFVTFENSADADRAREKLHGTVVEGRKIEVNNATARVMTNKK
| Strand | RBNS enrichment (R) |
| --- | --- |
| GGGAGUUCUACAGUCCGACGAUCAAUUCAGAGGCUACAGUAUAUCUACAUUCAUGUGGUGUUCAUUGGUAAUUUCAGUAUAUGUAAUGUGAUUUUAGACUGUGAAAUUUUAUCUCACAUUAAUAUCUGAAGUGUGGAAUUCUCGGGUGCCAA | 0.28 |
| GGGAGUUCUACAGUCCGACGAUCAGCUCUCAAGUUCACCCUUUAGGGAAAAGUUAUUUUGUUUACAUUAUUAUAAGGGAUUUGUGAUGUCUGUAAAGUGUAACCUAGGAAAGAUAAUUCAACCAUCUAAUCAAUGGAAUUCUCGGGUGCCAA | 0.465 |
| GGGAGUUCUACAGUCCGACGAUCAAACCGGGCCGCCAGGAUCCCUCCCCGCGGCGGCGAUGGCCCGAGCCAUGAGAGUGAGGACUUUCCGCGCCCAUUGGUGACCCUUCCAGGCAGACAGCCUCAGCAACGCCUGGAAUUCUCGGGUGCCAA | 0.19 |

Mixed results
| Molecule | target | assay | test system | conditions | how to read | endpoint | value |
| --- | --- | --- | --- | --- | --- | --- | --- |
| PhoQ, residues 284 288 289 292 302 303 SSLVEF | PhoP, residues 12 14 15 18 19 NMSFL (Escherichia coli, UniProt P23836) | Sort-seq, item: YFP reporter | E. coli | PhoQ-PhoP variant library, together with: 10 µM Mg2+ | baseline: high Mg2+ state, higher = stronger signaling | fold induction | 13 |

Excerpt of the above (block 3):
| Strand | RBNS enrichment (R) |
| --- | --- |
| GGGAGUUCUACAGUCCGACGAUCAAUUCAGAGGCUACAGUAUAUCUACAUUCAUGUGGUGUUCAUUGGUAAUUUCAGUAUAUGUAAUGUGAUUUUAGACUGUGAAAUUUUAUCUCACAUUAAUAUCUGAAGUGUGGAAUUCUCGGGUGCCAA | 0.28 |
